Results of several laboratories.
± gives the spread as reported.
UniProt Q9P0L2, sequence (whole entry, looked up): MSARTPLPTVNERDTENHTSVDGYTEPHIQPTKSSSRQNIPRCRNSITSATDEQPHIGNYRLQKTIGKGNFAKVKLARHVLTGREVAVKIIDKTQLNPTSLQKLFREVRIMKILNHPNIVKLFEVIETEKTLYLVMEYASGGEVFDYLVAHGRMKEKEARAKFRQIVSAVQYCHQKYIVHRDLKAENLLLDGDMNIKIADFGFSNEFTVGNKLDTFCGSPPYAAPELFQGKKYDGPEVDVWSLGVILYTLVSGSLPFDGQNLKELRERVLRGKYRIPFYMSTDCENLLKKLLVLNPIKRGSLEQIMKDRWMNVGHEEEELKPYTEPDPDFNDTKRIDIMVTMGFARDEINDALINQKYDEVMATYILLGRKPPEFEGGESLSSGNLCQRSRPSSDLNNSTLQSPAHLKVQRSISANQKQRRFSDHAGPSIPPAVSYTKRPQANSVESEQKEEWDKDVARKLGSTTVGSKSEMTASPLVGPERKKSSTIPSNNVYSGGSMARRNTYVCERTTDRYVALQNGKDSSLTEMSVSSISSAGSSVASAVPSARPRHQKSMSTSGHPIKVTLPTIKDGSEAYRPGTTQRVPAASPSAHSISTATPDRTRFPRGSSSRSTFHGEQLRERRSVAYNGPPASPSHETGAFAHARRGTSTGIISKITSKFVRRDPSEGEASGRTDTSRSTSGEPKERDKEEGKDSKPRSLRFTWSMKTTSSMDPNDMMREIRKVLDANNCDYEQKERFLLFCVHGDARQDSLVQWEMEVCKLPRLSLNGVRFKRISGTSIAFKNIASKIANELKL

CC(C)C[C@@H](NC(=O)[C@@H](CCCNC(=N)N)NC(=O)[C@@H](Cc1c[nH]cn1)NC(=O)[C@@H](Cc1c[nH]c2ccccc12)NC(=O)[C@@H](Cc1c[nH]cn1)NC(=O)[C@@H](Cc1ccccc1)NC(=O)[C@H](NC(=O)[C@@H](Cc1ccc(O)cc1)NC(=O)CNC(=O)CNC(=O)CCOCCOCCOCCNC(=O)CN1CCN(CC(=O)O)CCN(CC(=O)O)CC1)[C@H](C)O)C(=O)N[C@H](CC(N)=O)C(=O)N1CCC[C@@H]1C(=O)O [gallium-68 labelled]  tissue uptake (gamma counting; C57BL/6 mice, male, liver; intravenous, 1.85 MBq, 60 min): 0.94 ± 0.18 %ID/g
CN1Cc2cc(Cl)ccc2-n2c(nnc2C2CCN(c3cccc([18F])n3)CC2)C1  tissue uptake (C57BL/6 mouse male, spleen; intravenous, 3.7 MBq, 30 min): 5.87 ± 2.76 %ID/g
CS(C)(=O)=Nc1ccc(-c2ccc(-c3nc4cc(O[C@@H]5CO[C@H]6[C@@H]5OC[C@H]6O)[nH]c4cc3F)cc2)cc1  inhibition (Serine/threonine-protein kinase MARK1 (MARK1, Homo sapiens, UniProt Q9P0L2); enzyme activity, inhibitor; 10 µM): -26%
CCCC[C@H]1C(=O)N(C)[C@@H](CCCC)C(=O)N[C@@H](CCCNC(=O)CN2CCN(CC(=O)O)CCN(CC(=O)O)CCN(CC(=O)O)CC2)C(=O)N[C@H](C(=O)NCC(N)=O)CSCC(=O)N[C@@H](Cc2ccc(O)cc2)C(=O)N(C)[C@@H](C)C(=O)N[C@@H](CC(N)=O)C(=O)N2CCC[C@H]2C(=O)N[C@@H](Cc2c[nH]cn2)C(=O)N[C@@H](CC(C)C)C(=O)N(C)CC(=O)N[C@@H](Cc2c[nH]c3ccccc23)C(=O)N[C@@H](CO)C(=O)N[C@@H](Cc2c[nH]c3ccccc23)C(=O)N1C [gallium-68 labelled]  tissue uptake (NOD/SCID mice, CHO-hPD-L1 xenograft, heart; 60 min, atezolizumab 10 mg/kg pretreatment): 2.86 ± 0.18 %ID/g
COc1ccccc1-c1n[nH]c2nc(NC3CCN(C(=O)Cc4ccc(F)cc4F)CC3)ncc12  relative abundance (bead binding, competition bead pull-down, refers to: LINJ.36.3100; Leishmania donovani extract; 10 µM; relative to: vehicle): 0.95
C[C@H](O)[C@@H](NC(=O)[C@H]1CCCN1C(=O)[C@@H](CCCCN)NC(=O)[C@@H](CO)NC(=O)[C@@H](Cc1ccc(O)cc1)NC(=O)[C@@H](CC(N)=O)NC(=O)CCOCCOCCOCCNC(=O)CN1CCN(CC(=O)O)CCN(CC(=O)O)CCN(CC(=O)O)CC1)C(=O)N[C@H](CC(=O)O)C(=O)N[C@H](CCCNC(=N)N)C(=O)N[C@H](CCC(N)=O)C(=O)N[C@H](Cc1ccc(O)cc1)C(=O)N[C@H](Cc1c[nH]cn1)C(=O)N[C@H](Cc1ccccc1)C(N)=O [gallium-68 labelled]  tissue uptake (BALB/c nude mice U-87 MG tumour, spleen; intravenous, 1.85 MBq, 0.08333 h, radiolabelled): 0.98 ± 0.14 %ID/g
CC(C)(C)C(=O)OCOP(=O)(OCOC(=O)C(C)(C)C)C1CCCN(O)C1=O (stereo not drawn)  log TGI (Malme-3M): -5.24 log M
CC[C@H](C)[C@H](NC(=O)[C@H](CCCCN)NC(=O)CNC(=O)[C@H](CC(C)C)NC(=O)[C@H](Cc1ccccc1)NC(=O)[C@H](CCCCN)NC(=O)[C@H](CO)NC(=O)[C@H](Cc1ccccc1)NC(=O)[C@H](Cc1c[nH]c2ccccc12)NC(=O)[C@H](CCC(N)=O)NC(=O)[C@@H](NC(=O)[C@H](Cc1ccccc1)NC(=O)CCCCCNC(=O)CN1CCN(CC(=O)O)CCN(CC(=O)O)CCN(CC(=O)O)CC1)C(C)C)C(=O)N[C@@H](CCC(=O)O)C(=O)N1CCC[C@H]1C(=O)N[C@@H](CC(=O)O)C(=O)N[C@H](C(=O)N[C@@H](CO)C(=O)N[C@@H](CCC(N)=O)C(=O)N[C@H](C(=O)N[C@@H](CCC(N)=O)C(=O)N[C@@H](CC(=O)O)C(=O)N1CCC[C@H]1C(=O)N[C@@H](CC(N)=O)C(=O)N[C@@H](CC(=O)O)C(=O)N[C@@H](CCC(N)=O)C(=O)N[C@@H](Cc1ccc(O)cc1)C(=O)N[C@@H](CCC(=O)O)C(=O)N1CCC[C@H]1C(=O)N[C@@H](Cc1ccccc1)C(=O)O)C(C)C)C(C)C [copper-64 labelled]  tissue uptake (C57BL/6 mice, male, tumour-free, liver; 2 h): 25 ± 2.7 %ID/g
CC[C@H](C)[C@H](NC(=O)[C@H](CCCNC(=N)N)NC(=O)[C@H](CCCCN)NC(=O)[C@H](Cc1ccc(O)cc1)NC(=O)[C@H](CC(=O)O)NC(=O)[C@H](C)NC(=O)CNC(=O)CCOCCOCCOCCNC(=O)CN1CCN(CC(=O)O)CCN(CC(=O)O)CCN(CC(=O)O)CC1)C(=O)N[C@H](C(=O)N[C@H](C(=O)N[C@@H](CCCCN)C(=O)N[C@H](C(=O)N[C@@H](CC(N)=O)C(N)=O)C(C)C)C(C)C)[C@@H](C)O [copper-64 labelled]  tissue uptake (C57BL/6J mouse male, B16-F10 tumour, small intestine; intravenous, 1.85 MBq, 5 min, 67Ga complex): 2.1 ± 0.103 %ID/g
O=C1NC2(CC2)COc2ncc(F)cc2[C@H]2COCCN2c2ccn3ncc1c3n2  serum urea (Sprague-Dawley rat, female, serum; oral, 5 mg/kg/day, end of treatment, 4-week subacute toxicity): 5.91 ± 1.37 mmol/L
CSCC[C@H](NC(=O)CNC(=O)[C@H](CCCCN)NC(=O)[C@H](CC(C)C)NC(=O)[C@@H]1CCCN1C(=O)[C@H](CO)NC(=O)[C@H](Cc1c[nH]cn1)NC(=O)[C@H](Cc1c[nH]c2ccccc12)NC(=O)[C@H](CCCNC(=N)N)NC(=O)[C@H](CC(C)C)NC(=O)[C@H](CCCNC(=N)N)NC(=O)[C@H](Cc1c[nH]c2ccccc12)NC(=O)[C@H](CS)NC(=O)CCCCCNC(=O)CN1CCN(CC(=O)O)CCN(CC(=O)O)CCN(CC(=O)O)CC1)C(=O)O [copper-64 labelled]  tissue uptake (BALB/c nude mouse, Huh-7 tumour, lymph node; intravenous, 18 h, ex vivo biodistribution): 1.54 %ID/g
CC[C@H](C)[C@H](NC(=O)[C@H](CCCNC(=N)N)NC(=O)[C@H](CCCCN)NC(=O)[C@H](Cc1ccc(O)cc1)NC(=O)[C@H](CC(=O)O)NC(=O)[C@H](C)NC(=O)CNC(=O)CCOCCOCCOCCNC(=O)CN1CCN(CC(=O)O)CCN(CC(=O)O)CCN(CC(=O)O)CC1)C(=O)N[C@H](C(=O)N[C@@H](CC(C)C)C(=O)N[C@@H](CCCCN)C(=O)N[C@H](C(=O)N[C@@H](CC(N)=O)C(N)=O)C(C)C)[C@@H](C)O [copper-64 labelled]  tissue uptake (ex vivo gamma counting; C57BL/6J male mice, B16-F10 tumour, thymus; intravenous, 1.85 MBq, 20 min): 0.802 ± 0.288 %ID/g

A few entries again:
CCCC[C@H]1C(=O)N(C)[C@@H](CCCC)C(=O)N[C@@H](CCCNC(=O)CN2CCN(CC(=O)O)CCN(CC(=O)O)CCN(CC(=O)O)CC2)C(=O)N[C@H](C(=O)NCC(N)=O)CSCC(=O)N[C@@H](Cc2ccc(O)cc2)C(=O)N(C)[C@@H](C)C(=O)N[C@@H](CC(N)=O)C(=O)N2CCC[C@H]2C(=O)N[C@@H](Cc2c[nH]cn2)C(=O)N[C@@H](CC(C)C)C(=O)N(C)CC(=O)N[C@@H](Cc2c[nH]c3ccccc23)C(=O)N[C@@H](CO)C(=O)N[C@@H](Cc2c[nH]c3ccccc23)C(=O)N1C [gallium-68 labelled]  tissue uptake (NOD/SCID mice, CHO-hPD-L1 xenograft, heart; 60 min, atezolizumab 10 mg/kg pretreatment): 2.86 ± 0.18 %ID/g
